Published values gathered from unrelated publications.
Every numbered part comes from another study and shows a few of its results, in no order. Changes are numbered by the printed parent chain.
Sequence of UniProt O43318 (whole entry, looked up): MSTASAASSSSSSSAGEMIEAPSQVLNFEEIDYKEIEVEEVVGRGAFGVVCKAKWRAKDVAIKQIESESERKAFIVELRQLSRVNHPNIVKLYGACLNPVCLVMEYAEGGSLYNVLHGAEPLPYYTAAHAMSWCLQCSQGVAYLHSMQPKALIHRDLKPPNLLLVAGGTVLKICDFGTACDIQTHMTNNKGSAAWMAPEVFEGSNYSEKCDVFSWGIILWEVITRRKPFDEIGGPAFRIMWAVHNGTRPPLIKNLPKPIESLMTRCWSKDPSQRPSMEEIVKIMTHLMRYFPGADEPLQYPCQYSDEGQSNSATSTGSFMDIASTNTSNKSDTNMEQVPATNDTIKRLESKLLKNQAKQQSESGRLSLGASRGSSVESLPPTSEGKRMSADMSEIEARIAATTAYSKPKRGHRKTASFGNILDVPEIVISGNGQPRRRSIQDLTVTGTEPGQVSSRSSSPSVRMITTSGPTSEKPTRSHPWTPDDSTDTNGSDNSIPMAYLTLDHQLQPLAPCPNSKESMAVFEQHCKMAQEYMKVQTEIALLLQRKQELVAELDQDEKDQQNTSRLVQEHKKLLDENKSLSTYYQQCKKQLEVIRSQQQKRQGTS
Sequence of UniProt P35372 (whole entry, looked up): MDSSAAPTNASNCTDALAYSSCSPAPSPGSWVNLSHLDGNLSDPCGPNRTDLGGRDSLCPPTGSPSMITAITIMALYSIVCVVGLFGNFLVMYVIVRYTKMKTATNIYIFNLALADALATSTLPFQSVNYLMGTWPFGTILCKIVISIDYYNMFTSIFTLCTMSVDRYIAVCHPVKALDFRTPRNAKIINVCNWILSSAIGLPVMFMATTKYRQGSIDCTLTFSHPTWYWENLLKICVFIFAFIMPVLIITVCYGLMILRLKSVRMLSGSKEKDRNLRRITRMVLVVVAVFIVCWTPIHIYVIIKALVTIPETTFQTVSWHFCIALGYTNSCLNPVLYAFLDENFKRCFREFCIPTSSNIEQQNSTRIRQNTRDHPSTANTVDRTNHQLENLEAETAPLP

Series 1 — target: CCNB2, cyclin fold, Cln2 fusion (human); technique: yeast growth competition, sequencing; medium: yeast; setting: weak parent motif; baseline: not given; direction: higher = stronger binding
Parent: viral docking peptide; KGVKRKLFAEDSS; partner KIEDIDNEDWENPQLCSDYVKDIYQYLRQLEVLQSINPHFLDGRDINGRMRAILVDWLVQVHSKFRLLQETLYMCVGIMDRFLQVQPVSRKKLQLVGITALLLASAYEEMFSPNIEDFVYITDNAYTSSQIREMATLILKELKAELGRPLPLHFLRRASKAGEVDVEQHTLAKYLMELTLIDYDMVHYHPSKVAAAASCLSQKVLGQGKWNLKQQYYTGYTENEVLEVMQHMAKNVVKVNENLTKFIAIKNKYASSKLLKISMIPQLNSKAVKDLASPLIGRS
Substitution	normalised enrichment score
S12F	1.01
R5L	0.167
L7F	0.37
K4W	0.0996
L7A	0.097
K4C	0.402
R5A	0.628
V3H	0.892

Series 2 — observed: peptide-MHC binding; molecule type: peptide; tested at: concentration not given
Target: HLA class I histocompatibility antigen, A alpha chain, allele A*80:01 (Homo sapiens, UniProt P04439)
Molecule	binding
TPSHYSGNI	inactive
LTDRELLLL	inactive
KQLPPLAAW	inactive
KEGKLQCRI	inactive
QLFPELECF	inactive
EKDSNHNVL	inactive
TMGPHPAGV	inactive
DSFAKQPQW	inactive

Further values, each from its own experiment — observed: cell-free assay
SMILES	target	conditions	quantity	result
O=c1[nH]c2ccccc2n1C1CCN(Cc2ccc(-c3[nH]c4cc5ncnc5cc4nc3-c3ccccc3)cc2)CC1	MAP3K7 (Homo sapiens, UniProt O43318)	0.5 µM	remaining signal	84.1%
C[C@H](NC(=O)Nc1cc2[nH]ncc2c(CO)n1)c1ccccn1	OPRM1 (Homo sapiens, UniProt P35372)	10 µM	inhibition	-6.59%

Some of these lines once more (series 2):
Molecule	binding
EKDSNHNVL	inactive
TMGPHPAGV	inactive
